Assay results gathered from unrelated publications.
A part holds a random share of what one study measured. Positions count from the first letter of the parent shown.

Study 1 — method: DHFR PCA, deep sequencing; medium: yeast; added: (+)-ABA 0.11 µM; reference: wild-type fitted maximum; reading: higher = stronger binding; measurement: relative binding score
Target: ABI1, truncated, D143A, DHFR fusion (Arabidopsis thaliana)
Notes: methotrexate growth selection, single substitutions
Parent: PYL1, truncated, DHFR fusion (Arabidopsis thaliana); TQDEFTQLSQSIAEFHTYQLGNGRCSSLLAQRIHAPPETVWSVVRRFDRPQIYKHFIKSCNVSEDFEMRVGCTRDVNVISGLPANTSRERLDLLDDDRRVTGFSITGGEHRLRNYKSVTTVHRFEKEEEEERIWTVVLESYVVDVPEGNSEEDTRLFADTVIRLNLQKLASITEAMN; partner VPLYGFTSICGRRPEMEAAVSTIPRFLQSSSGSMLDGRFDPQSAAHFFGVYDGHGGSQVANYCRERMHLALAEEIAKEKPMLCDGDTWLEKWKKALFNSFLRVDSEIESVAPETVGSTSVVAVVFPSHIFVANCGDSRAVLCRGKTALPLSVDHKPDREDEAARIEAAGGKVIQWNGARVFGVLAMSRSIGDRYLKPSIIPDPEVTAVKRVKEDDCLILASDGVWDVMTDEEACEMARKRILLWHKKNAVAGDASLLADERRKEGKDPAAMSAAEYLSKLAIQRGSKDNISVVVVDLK
R155N: -1.12%
G102Q: -2.94%
R99H: 27.7%
Y18G: 2.19%
T135P: 2.17%
F15V: 0.321%
N77R: 54.9%
E128R: 22.9%
E109I: -3.73%
S9K: 63.4%
G107Q: 16.8%
V145F: -18.3%
S27L: 2.11%
V118A: 1.82%

Study 2 — method: protein binding microarray; molecule type: double-stranded DNA, one strand shown; medium: in vitro; concentration: not given; reference: not given; reading: higher = stronger binding; measurement: E-score
Target: Histone acetyltransferase KAT6A, winged helix 1, GST fusion (KAT6A, Homo sapiens, UniProt Q92794, residues 1-85)
Notes: 8-mer, flanks averaged, mean of 2 arrays, mostly near background
Target sequence (chain): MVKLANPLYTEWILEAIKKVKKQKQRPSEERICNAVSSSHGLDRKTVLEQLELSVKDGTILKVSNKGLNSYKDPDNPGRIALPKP
ATTATCCA: -0.133
AGCGCCAT: 0.242
AGGTAAAA: -0.14
CTTCGGCC: 0.074
ACTGTGAT: -0.138
GAAGATTC: -0.0258
CGCGTCAA: 0.289
GCGTTTTA: 0.173
ATAGTTGA: -0.085
CTCTGCAC: -0.0573
TCATGTCA: -0.165
AAACGTGT: -0.144
CAGTGTTA: 0.0038
GTGCATCA: 0.00532
AATGCGGT: 0.194
GCAAAAGC: 0.132
CTAGGTAA: -0.148
CCGGCCTA: 0.122
AGTTAGCA: -0.136
AGAATTCG: -0.149
GGGCCACC: 0.0227
ACGTGCCT: -0.215
CGGCTACC: 0.307
ACCAAGCA: -0.221
CTCTTCCC: 0.068

Study 3 — target: UBE2D1 UBC core domain (UniProt P51668); method: yeast two-hybrid; medium: yeast; notes: mostly zero background; reference: not given; reading: higher = stronger interaction; measurement: lacZ reporter activity
B1: TRIM40 RING domain (UniProt Q6P9F5); chain LQKDNQEEGVCPICQESLKEAVSTNCGHLFCRVCLTQHVEKASASGVFCCPLCRKPCSEEVLG
B2: VPS41 RING domain (UniProt P49754); chain KGVLVDEENICESCLSPILPSDAAKPFSVVVFHCRHMFHKECLPMPSMNSAAQFCNICSAKNRGPGSAI
B3: RNF38 RING domain (UniProt Q9H0F5); chain PNNHQSEQTLCVVCMCDFESRQLLRVLPCNHEFHAKCVDKWLKANRTCPICRADASEVHRDS
B4: TRIM5 RING domain (UniProt Q9C035); chain ILVNVKEEVTCPICLELLTQPLSLDCGHSFCQACLTANHKKSMLDKGESSCPVCRISYQPENIRP
B5: TRIM4 RING domain (UniProt Q9C037); chain EAEDIQEELTCPICLDYFQDPVSIECGHNFCRGCLHRNWAPGGGPFPCPECRHPSAPAALRP
B6: TRIM13 RING domain (UniProt O60858); chain MELLEEDLTCPICCSLFDDPRVLPCSHNFCKKCLEGILEGSVRNSLWRPAPFKCPTCRKETSATGINS
B7: TRIM24 RING domain (UniProt O15164); chain EAARLNLLDTCAVCHQNIQSRAPKLLPCLHSFCQRCLPAPQRYLMLPAPMLGSAETPPPVPAPGSPVSGSSPFATQVGVIRCPVCSQECAERHII
Residues (chain): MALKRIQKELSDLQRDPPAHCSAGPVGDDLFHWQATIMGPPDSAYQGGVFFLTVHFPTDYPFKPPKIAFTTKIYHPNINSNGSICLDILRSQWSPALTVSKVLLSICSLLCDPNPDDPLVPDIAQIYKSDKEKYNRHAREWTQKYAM
B1 (TRIM40 RING domain): 0
B2 (VPS41 RING domain): 0
B3 (RNF38 RING domain): 0
B4 (TRIM5 RING domain): 0
QVDKAVFHMQSVKCLKCQEQKRAVLPCQHAALCELCAEGSECPICQPGRAHTLQS (UNK RING domain (UniProt Q9C0B0)): 0
B5 (TRIM4 RING domain): 0
B6 (TRIM13 RING domain): 0
B7 (TRIM24 RING domain): 0
ASLPTSEEDLCPICYAHPISAVFQPCGHKSCKACINQHLMNNKDCFFCKTTIVSVEDWE (RNF123 RING domain (UniProt Q5XPI4)): 0

Study 4 — target: NFIL3, bZIP domain (human); method: DHFR protein complementation; medium: yeast; reference: wild-type JUN-FOS pair; reading: higher = stronger binding; measurement: binding fitness
Notes: single substitutions, most at no-binding floor
Parent: JUN, bZIP domain (human); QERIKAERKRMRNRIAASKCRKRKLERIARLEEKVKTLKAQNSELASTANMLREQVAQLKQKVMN; partner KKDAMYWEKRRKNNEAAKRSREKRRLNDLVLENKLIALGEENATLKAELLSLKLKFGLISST
V35P: -1.41 natural log
E33G: -1.45 natural log
Q58P: -1.36 natural log
E54K: -1.52 natural log
E54L: -1.5 natural log
T37F: -1.6 natural log
M51G: -1.44 natural log
A46W: -1.33 natural log
R53D: -1.5 natural log
T48A: -1.36 natural log
L45P: -1.55 natural log
N42D: -1.49 natural log
I28S: -1.51 natural log
E44M: -1.56 natural log
K39R: -1.24 natural log
K34S: -1.5 natural log
E44R: -1.44 natural log
M51Q: -1.46 natural log
K34Q: -1.4 natural log
S47P: -1.4 natural log
K39D: -1.28 natural log
T37P: -1.51 natural log
E54T: -1.46 natural log
L45C: -1.48 natural log
V35H: -1.34 natural log

Study 5 — target: CCNA1, cyclin fold, Cln2 fusion (human); method: yeast growth competition, sequencing; medium: yeast; notes: weak parent motif; reference: not given; reading: higher = stronger binding; measurement: normalised enrichment score
Parent: CDKN1B docking peptide (human); PSACRNLFGPVDH
PSACRNLFGPVGH [D12G]: 0.205
PSACRNLFGPKDH [V11K]: 0.268
PSACRNLFKPVDH [G9K]: 0.495
PSACRNLFGSVDH [P10S]: 0.425
WSACRNLFGPVDH [P1W]: 0.307
PSACRNAFGPVDH [L7A]: 0.325
PSANRNLFGPVDH [C4N]: 0.283
PSACRNLFNPVDH [G9N]: 0.255
PSACPNLFGPVDH [R5P]: -0.0535
CSACRNLFGPVDH [P1C]: 0.132
PSACRNSFGPVDH [L7S]: 0.384
PSACRNLFGPEDH [V11E]: 0.403
PSACRNLFLPVDH [G9L]: 0.525
PSACRTLFGPVDH [N6T]: 0.133
PSCCRNLFGPVDH [A3C]: 0.402
PSACRGLFGPVDH [N6G]: 0.223
PSACANLFGPVDH [R5A]: -0.0093

Study 6 — method: RNA Bind-n-Seq; molecule type: RNA; medium: in vitro; concentration: 365 nM; reference: no-protein control; reading: higher = stronger binding; measurement: RBNS enrichment (R)
Target: RNA binding protein fox-1 homolog 2, RRM domain, GST-SBP tag (RBFOX2, Homo sapiens, UniProt O43251-10, residues 100-194)
Notes: natural RNA segment, single round, ends assumed
Construct (chain): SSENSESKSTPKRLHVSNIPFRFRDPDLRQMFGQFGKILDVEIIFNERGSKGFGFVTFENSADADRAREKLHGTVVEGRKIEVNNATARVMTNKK
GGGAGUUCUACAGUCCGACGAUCGAGGAGUCACUGUUCCUUUUUUUAGGUUAGAAAUUAACAGCAGGGAAAUGCCAUCUUAUUACCUGAGACGACCAGCACUGGGAGUUAGGUACGGUCUGAAGUUAUGUCUAUGGAAUUCUCGGGUGCCAA: 0.471
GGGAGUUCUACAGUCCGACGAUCACAUCAUCACAGCAGCCUCCUCACUUGGGUACUACAGUGUGGAAGCUGAGUGCAUAUGGUAUAUUUUAUUCAUUUUUGUAAAGCGUUCUGUUUUGUGUUUACUAAUUGGGUGGAAUUCUCGGGUGCCAA: 0.674
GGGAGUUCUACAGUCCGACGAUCCCAGUUCCCAAAUCAAUUAUAGGUACCUGUUUAGGAGAGAGGAAGAUUUUACCUCUCAAAGGGUGAGAUUUGAAAUUUACACUAAAAAGACAACUUUACAUUUAAUGCUUUGGAAUUCUCGGGUGCCAA: 0.286
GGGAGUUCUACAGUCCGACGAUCUUUUAGAAAAGGGAGUCUGUUCCAGAUCAGUGCCAGAACUGUGCCCAGGCCCAAAGGAGACAACUAACUAAAGUAGUGAGAUAGAUUCUAAGGGCAAACAUUUUUCCAAGUGGAAUUCUCGGGUGCCAA: 0.289
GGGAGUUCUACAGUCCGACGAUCUUUCUGCUGAUAUACUCACCUUAGAACUGCUCAGAACCCUGGUGCUUUAUUUUUGUUUUAAUCUUUUGUUGCCAGUGAUGAUUUUCCUAUUCUGCAAAUAGUGUAUUUCCUGGAAUUCUCGGGUGCCAA: 0.908
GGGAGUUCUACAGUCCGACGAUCCCCUAAUUUUUUUUGUUUUAAUGUUUAAUUUUCAUUCUAUUUUAAAUCAGACAUUAAAAAUAUUCAAAAACAAACAAGAGUCAGGCUUCAACUUGAAGUAUAGAUAUGACUGGAAUUCUCGGGUGCCAA: 0.556
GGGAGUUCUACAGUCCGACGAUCAUUGAAACCAGUGUAACAGCACAAAGAGCUCUAAUGUGUAACACUUCCUCUGAAAUGGAUAUAAAGAUGUAAAUUUUAUAACAGCACUGUUUAUUCUGAUGCAUUCUGAUUGGAAUUCUCGGGUGCCAA: 1.02
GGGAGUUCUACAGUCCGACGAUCCAGGCAUCCUCCAUGUGGACUCACUGUGCUGUUGGGACUGAAACACUAACUUUGUAAAAUGUGUCUGGACCACAAGAGGAUACAGGAGAAGUGCUACCUCUGAUCUAACUUGGAAUUCUCGGGUGCCAA: 0.427
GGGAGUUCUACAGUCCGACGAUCCCGUGGACUCUCCCUGGUCCACCACCAUGUUGAAGCCCUUGGCAGCCUGAGAGCUCCAAGGAACAAGCUGUGACAACCAGGAGCCCUGUCUGUGGGUUCGUCUGCCCAGGUGGAAUUCUCGGGUGCCAA: 0.246
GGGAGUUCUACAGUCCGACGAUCUCCGGGUCUCCCUAGGAUAUGCCCCAGUAGCAUUUGCUGUGUAGUCUGUGUGUGAAAUUUGGGCAUUCUGCUUUUCUCUACUAAUCUUGAAGUGCUCAGUGAUUUGUGUAUGGAAUUCUCGGGUGCCAA: 1.22
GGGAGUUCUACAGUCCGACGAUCUAGGGCUGUUAAUCAAUUGUUUUUGUUUUUGUUGUUUUCUUUGCCUGAGUCCUGACAAUUGUAUCCCGGUUCCCCAGGGGACAGUCUGGGUCCCUCUCUGGUCUGACGCUUGGAAUUCUCGGGUGCCAA: 6.51
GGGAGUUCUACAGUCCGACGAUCUGAGUGCCAGAAGCUGCCUCCGUGGUUUGGUCACCGUGUGCAUCGCACCGUGCUGUAAAUGUGGCAGACGCAGCCUGCGGCCAGGCUUUUUAUUUAAUGUAAAUAGUUUUUGGAAUUCUCGGGUGCCAA: 0.518

Repeated from above (study 4):
E54T: -1.46 natural log
L45C: -1.48 natural log
A46W: -1.33 natural log
S47P: -1.4 natural log
L45P: -1.55 natural log
E54L: -1.5 natural log
Q58P: -1.36 natural log
K34S: -1.5 natural log
K39D: -1.28 natural log
K34Q: -1.4 natural log
